Assay results gathered from unrelated publications.
Lines come from different studies, so protocols differ. ± marks the error that the study gave.

| SMILES | cell line | read-out | method | time | setting | added | CC50 |
| --- | --- | --- | --- | --- | --- | --- | --- |
| c1csc(-c2ccc(-c3cccs3)s2)c1 | PH5CH8 (oleate-loaded) |  |  | 72 h |  | sodium oleate 1 mM | > 15 µM |
| CCC(CC)COC(=O)[C@H](C)N[P@](=O)(OC[C@H]1O[C@@](C#N)(c2ccc3c(N)ncnn23)[C@H](O)[C@@H]1O)Oc1ccccc1 | human PBM cells |  |  |  |  |  | 4.4 ± 2.2 µM |
| C1=C(c2ccc(CN3CCCCC3)cc2)N2CCN=C2c2ccccc21 | 293T-ACE2 |  |  | 40 (unit not given) |  |  | > 2.5 µM |
| CC(C)C[C@H](NC(=O)OCc1ccccc1)C(=O)N[C@H](C=O)C[C@@H]1CCCNC1=O | human PBM cells | cytotoxicity |  |  |  |  | > 100 µM |
| COc1ccc2cc1Oc1ccc(cc1)C[C@H]1c3cc(c(OC)cc3CCN1C)Oc1c(OC)c(OC)cc3c1[C@H](C2)N(C)CC3 | 293T-ACE2 |  |  | 40 (unit not given) |  |  | > 2.5 µM |
| CC(C)C[C@H](NC(=O)OCc1ccccc1)C(=O)N[C@@H](CC(C)C)C(=O)N[C@@H](CC1CCNC1=O)C(=O)C(=O)NC1CC1 (stereo partly shown) | MRC5 |  |  | 5 (unit not given) |  |  | 110 ± 9.8 µM |
| C[C@@H]1CS/C(=N\NC(=O)C(=O)[C@H](NC(=O)C2CCCCCC2)C2CCOCC2)N1C | 293T-ACE2 |  |  | 40 (unit not given) |  |  | > 2.5 µM |
| COC(=O)[C@@H]1[C@@H](c2ccccc2)[C@]2(c3ccc(OC)cc3)Oc3cc(OC)cc(OC)c3[C@@]23N=C(C)N[C@@]13O | transfected HepG2 |  | MTT | 48 h |  |  | 0.0197 µM |
| COc1cc2c3c(c1OC)-c1ccccc1C[C@H]3N(C)CC2 | A549-hACE2 | cytotoxicity |  | 96 h |  |  | 86.7 ± 13.4 µM |
| CC(C)(C)[C@H](NC(=O)C(F)(F)F)C(=O)N1C[C@H]2[C@@H]([C@H]1C(=O)N[C@H](C#N)C[C@@H]1CCNC1=O)C2(C)C | human PBM cells |  |  |  |  |  | > 100 µM |
| COc1ccc(-c2cc(=O)c3c(OC)cc(OC)cc3o2)cc1 | A549-hACE2 | cytotoxicity |  | 96 h |  |  | 50.8 ± 4.83 µM |
| CCC(CC)COC(=O)[C@H](C)N[P@](=O)(OC[C@H]1O[C@@](C#N)(c2ccc3c(N)ncnn23)[C@H](O)[C@@H]1O)Oc1ccccc1 | 293T-ACE2 |  |  | 40 (unit not given) |  |  | 0.72 µM |
| C=C(C)[C@@H]1CC[C@]2(C(=O)Nc3ccccc3)CC[C@]3(C)[C@H](CC[C@@H]4[C@@]5(C)CC[C@H](O[C@@H]6O[C@H](CO)[C@@H](O[C@@H]7O[C@@H](C)[C@H](O)[C@@H](O)[C@H]7O)[C@H](O)[C@H]6O[C@@H]6O[C@@H](C)[C@H](O)[C@@H](O)[C@H]6O)C(C)(C)[C@@H]5CC[C@]43C)[C@@H]12 | 293T-ACE2 | cytotoxicity | MTT | 48 h | 50% serum |  | > 200 µM |
